Assay results collected from several papers.
Values joined by “and” are separate records of one study, mostly repeats; a detail may differ. Numbers after ± are the reported error.
GUK1: GUK1 (Homo sapiens, UniProt Q16774)
Sequence of UniProt Q16774 (whole entry, looked up): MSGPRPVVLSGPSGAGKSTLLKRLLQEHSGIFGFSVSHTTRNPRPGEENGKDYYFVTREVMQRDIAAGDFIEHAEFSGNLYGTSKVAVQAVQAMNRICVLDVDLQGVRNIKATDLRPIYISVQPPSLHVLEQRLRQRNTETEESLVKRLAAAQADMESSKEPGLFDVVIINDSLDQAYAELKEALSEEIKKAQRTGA
ALB: Albumin (ALB, Homo sapiens, UniProt P02768)
uncharacterized protein: uncharacterized protein (Spodoptera exigua, UniProt F1CEY0)
Sequence of UniProt P51575 (whole entry, unmodified, looked up): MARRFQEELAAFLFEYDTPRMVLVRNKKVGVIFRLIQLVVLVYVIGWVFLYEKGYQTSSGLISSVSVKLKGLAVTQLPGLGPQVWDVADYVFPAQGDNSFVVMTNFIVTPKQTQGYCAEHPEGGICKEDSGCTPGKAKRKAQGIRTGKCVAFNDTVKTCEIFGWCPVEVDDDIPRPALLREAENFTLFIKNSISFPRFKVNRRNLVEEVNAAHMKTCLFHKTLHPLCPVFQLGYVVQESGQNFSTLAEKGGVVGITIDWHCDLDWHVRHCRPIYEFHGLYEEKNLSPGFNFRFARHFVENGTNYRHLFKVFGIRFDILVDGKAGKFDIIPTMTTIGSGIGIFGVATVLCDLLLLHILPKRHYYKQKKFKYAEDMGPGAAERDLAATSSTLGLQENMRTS
Sequence of UniProt Q16853 (whole entry, looked up): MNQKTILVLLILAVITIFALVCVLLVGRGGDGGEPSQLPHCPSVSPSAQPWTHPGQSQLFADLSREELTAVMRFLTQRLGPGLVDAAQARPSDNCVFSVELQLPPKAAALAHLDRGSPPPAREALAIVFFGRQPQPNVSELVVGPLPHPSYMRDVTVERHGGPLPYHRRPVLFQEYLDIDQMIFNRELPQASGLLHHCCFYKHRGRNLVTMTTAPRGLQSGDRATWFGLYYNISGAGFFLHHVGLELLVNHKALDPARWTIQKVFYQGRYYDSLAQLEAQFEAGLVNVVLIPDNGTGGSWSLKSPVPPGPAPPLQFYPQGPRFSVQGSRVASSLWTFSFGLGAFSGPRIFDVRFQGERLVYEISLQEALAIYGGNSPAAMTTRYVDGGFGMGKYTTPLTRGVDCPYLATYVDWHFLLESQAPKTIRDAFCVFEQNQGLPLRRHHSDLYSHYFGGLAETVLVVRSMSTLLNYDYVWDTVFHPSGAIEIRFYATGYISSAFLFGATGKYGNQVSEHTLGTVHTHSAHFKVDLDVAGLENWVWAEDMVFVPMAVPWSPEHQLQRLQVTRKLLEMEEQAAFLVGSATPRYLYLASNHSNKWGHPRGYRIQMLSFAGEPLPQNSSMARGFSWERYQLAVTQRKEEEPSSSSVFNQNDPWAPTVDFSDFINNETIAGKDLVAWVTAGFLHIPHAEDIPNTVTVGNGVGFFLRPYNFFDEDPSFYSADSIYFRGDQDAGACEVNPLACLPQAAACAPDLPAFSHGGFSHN
Sequence of UniProt P52701 (whole entry, looked up): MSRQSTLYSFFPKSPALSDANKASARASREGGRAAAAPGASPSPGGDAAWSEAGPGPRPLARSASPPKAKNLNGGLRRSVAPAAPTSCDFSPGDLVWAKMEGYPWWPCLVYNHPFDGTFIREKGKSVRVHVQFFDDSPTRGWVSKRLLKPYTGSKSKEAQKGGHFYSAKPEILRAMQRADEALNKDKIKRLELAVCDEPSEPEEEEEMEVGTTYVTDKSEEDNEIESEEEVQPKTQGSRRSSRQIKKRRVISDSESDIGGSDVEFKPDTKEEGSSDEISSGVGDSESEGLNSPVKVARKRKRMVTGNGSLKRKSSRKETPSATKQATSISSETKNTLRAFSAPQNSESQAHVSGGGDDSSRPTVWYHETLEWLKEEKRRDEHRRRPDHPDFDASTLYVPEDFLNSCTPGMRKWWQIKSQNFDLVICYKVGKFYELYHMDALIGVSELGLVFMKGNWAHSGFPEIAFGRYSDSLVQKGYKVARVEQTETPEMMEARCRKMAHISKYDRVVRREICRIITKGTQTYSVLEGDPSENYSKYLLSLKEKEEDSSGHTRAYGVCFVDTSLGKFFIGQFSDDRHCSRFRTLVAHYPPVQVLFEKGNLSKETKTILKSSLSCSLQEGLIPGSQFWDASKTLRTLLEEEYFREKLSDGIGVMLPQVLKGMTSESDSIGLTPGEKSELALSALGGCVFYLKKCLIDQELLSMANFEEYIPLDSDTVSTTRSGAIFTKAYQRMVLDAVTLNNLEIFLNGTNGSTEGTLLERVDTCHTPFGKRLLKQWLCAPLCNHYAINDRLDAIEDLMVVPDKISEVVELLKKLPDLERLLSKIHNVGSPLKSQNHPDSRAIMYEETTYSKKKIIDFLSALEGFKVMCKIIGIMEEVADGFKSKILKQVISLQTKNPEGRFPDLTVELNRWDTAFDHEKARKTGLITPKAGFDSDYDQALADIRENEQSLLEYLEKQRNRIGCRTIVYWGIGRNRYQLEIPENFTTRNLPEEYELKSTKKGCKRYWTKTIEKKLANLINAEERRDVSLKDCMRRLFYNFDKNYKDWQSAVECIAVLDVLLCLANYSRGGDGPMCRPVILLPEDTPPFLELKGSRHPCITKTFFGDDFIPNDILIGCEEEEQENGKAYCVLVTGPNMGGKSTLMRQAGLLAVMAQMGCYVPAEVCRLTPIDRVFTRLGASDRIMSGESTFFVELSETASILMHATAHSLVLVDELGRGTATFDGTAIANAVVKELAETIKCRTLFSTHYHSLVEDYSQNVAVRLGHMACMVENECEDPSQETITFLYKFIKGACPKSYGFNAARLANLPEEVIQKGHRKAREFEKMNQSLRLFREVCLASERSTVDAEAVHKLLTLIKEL
Sequence of UniProt P23458 (whole entry, looked up): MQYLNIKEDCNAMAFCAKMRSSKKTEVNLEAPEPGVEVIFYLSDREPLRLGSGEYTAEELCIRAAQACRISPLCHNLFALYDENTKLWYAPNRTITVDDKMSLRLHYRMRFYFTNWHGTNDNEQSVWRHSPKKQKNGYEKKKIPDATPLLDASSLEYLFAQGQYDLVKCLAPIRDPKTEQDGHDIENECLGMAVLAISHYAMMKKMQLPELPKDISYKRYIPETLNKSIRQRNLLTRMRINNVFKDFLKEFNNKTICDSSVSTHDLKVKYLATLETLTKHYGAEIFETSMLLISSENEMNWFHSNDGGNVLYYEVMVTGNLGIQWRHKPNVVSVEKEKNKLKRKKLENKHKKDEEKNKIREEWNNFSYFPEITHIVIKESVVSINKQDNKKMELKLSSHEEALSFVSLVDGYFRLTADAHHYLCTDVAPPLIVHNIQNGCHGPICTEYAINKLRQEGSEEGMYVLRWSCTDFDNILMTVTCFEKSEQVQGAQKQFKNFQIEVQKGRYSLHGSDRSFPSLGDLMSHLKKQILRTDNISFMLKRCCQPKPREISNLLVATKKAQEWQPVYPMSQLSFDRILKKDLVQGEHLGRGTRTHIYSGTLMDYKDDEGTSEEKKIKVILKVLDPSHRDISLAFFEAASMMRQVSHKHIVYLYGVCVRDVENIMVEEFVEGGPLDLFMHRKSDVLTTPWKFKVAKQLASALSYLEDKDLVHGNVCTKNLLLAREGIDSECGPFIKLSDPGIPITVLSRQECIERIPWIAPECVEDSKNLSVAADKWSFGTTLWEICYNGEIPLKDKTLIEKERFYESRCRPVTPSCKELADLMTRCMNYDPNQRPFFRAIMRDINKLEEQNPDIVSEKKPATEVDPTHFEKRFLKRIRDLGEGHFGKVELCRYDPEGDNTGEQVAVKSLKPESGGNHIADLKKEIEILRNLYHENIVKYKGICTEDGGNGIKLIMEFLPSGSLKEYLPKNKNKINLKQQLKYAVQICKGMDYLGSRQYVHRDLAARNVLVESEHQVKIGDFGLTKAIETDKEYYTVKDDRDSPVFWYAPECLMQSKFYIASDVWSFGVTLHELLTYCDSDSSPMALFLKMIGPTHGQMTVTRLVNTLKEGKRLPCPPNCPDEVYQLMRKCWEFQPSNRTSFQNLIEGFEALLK
Sequence of UniProt P0DMS8 (whole entry, looked up): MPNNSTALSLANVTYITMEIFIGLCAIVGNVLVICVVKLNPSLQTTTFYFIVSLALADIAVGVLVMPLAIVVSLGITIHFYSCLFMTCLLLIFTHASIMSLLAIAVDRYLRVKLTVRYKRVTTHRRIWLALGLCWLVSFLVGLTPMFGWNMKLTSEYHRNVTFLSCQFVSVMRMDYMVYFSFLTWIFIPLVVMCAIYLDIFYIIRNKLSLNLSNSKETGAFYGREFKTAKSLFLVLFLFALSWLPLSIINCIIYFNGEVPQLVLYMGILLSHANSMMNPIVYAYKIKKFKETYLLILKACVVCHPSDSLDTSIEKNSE
Sequence of UniProt Q15185 (whole entry, looked up): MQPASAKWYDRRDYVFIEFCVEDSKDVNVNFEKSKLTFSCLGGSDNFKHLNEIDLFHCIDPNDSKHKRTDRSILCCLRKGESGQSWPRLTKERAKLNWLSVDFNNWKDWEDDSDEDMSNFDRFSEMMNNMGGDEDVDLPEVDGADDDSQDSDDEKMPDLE

| Structure (SMILES) | target | test | test system | setting | how to read | endpoint | result |
| --- | --- | --- | --- | --- | --- | --- | --- |
| Nc1ncnc2c1ncn2[C@@H]1O[C@H](COP(=O)(O)OP(=O)(O)O)[C@@H](O)[C@H]1O | GUK1 | binding, isothermal titration calorimetry | – | molar ratio 0.297, fitted curve | – | ΔH | -2.95 kcal/mol |
| Cc1cc(-c2ccnc3[nH]cc(F)c23)cc(F)c1[C@@]1(O)[C@H](C)CN(C2CCS(=O)(=O)CC2)C[C@@H]1C | JAK1 (Homo sapiens, UniProt P23458) | ATP/ADP probe binding, KiNativ | HEK293T lysate | 10 µM, Lys1 peptide domain 2 | – | probe labelling inhibition | 32.5% |
| CC(=C/C(=O)O)/C=C/C=C(\C)C1C=C2C(C)(C)CCCC2(C)O1 (stereo not shown) | Rhodopsin (RHO, Homo sapiens, UniProt P08100, T17M) | ER retention, immunostaining co-localization, refers to: opsin with calnexin | COS-7 transfected T17M | 0.10 µM | – | Pearson correlation coefficient | 0.71 |
| COc1cccc(CNC(=O)C#Cc2cn(Cc3ccc(C(=O)O)cc3)c(=O)[nH]c2=O)c1 | Collagenase 3 (MMP13, Homo sapiens, UniProt P45452) | protease activity, FRET | – | – | – | log IC50 | -7.963 ± 0.0471 |
| N[C@H](CNC(=O)c1ccc(-c2cccc(F)c2)s1)C(=O)O | Glutamate receptor ionotropic, NMDA 1, with GluN2C (Grin1, Rattus norvegicus, UniProt P35439) | – | – | with: glutamate 300 µM | – | Hill slope | 1.46 |
| Cc1occc(=O)c1[O-].[Cl-].[W+4].c1cc[cH-]c1.c1cc[cH-]c1 | ALB | fluorescence quenching | – | 288 K | – | Stern-Volmer quenching constant | 11900 L/mol |
| C=CC(=O)N1CCC[C@@H](n2nc(-c3ccc(Oc4ccccc4)cc3)c3c(N)ncnc32)C1 | EPHA2 (Homo sapiens, UniProt P29317) | – | – | 0.1 µM | – | remaining activity | 128% |
| CCCCCCCO | uncharacterized protein | binding, competitor, fluorescence displacement | – | 20 µM, pH 7.4, with: 1-NPN 20 µM | relative to: 1-NPN alone | relative fluorescence | 61.8% |
| CC[C@H](C)[C@@H]1NC(=O)[C@H](Cc2ccc(-c3ccccc3)cc2)NC(=O)[C@H](CC(C)C)NC(=O)[C@@H]2CCCN2C(=O)[C@@H](NC(=O)[C@H](CCCNC(=N)N)NC(=O)[C@H](CCCNC(=N)N)NC(C)=O)CSSC[C@@H](C(=O)N[C@@H](CCCNC(=N)N)C(=O)N[C@@H](CCCNC(=N)N)C(N)=O)NC(=O)[C@H](C(C)C)NC(=O)[C@@H]2CCCN2C(=O)[C@H](CC(=O)O)NC(=O)[C@H](Cc2ccc(O)cc2)NC(=O)[C@H](CO)NC1=O | GTPase KRas, GDP-bound (KRAS, Homo sapiens, UniProt P01116, G12D) | affinity selection mass spectrometry | – | mixture library 1, with: protein titration up to 5 µM | lower is stronger binding | lowest bound protein concentration | 0.08 µM |
| CC[C@H](C)[C@@H]1NC(=O)[C@H](CO)NC(=O)[C@@H]2CCCN2C(=O)[C@@H](NC(=O)CN)CSSC[C@@H]2NC(=O)CNC(=O)[C@H](C)NC(=O)[C@H](CC(C)C)NC(=O)[C@@H]3CSSC[C@@H](C(=O)NCC(=O)O)NC(=O)[C@H](Cc4ccccc4)NC(=O)CNC(=O)[C@H](CC(N)=O)NC(=O)[C@@H]4CCCN4C(=O)CNC(=O)[C@H](CSSC[C@H](NC(=O)[C@H](CCCNC(=N)N)NC(=O)[C@H](Cc4c[nH]cn4)NC(=O)[C@H](CCCNC(=N)N)NC(=O)[C@H](CCCCN)NC(=O)[C@H](C(C)C)NC(=O)[C@H](CCCNC(=N)N)NC(=O)[C@H](CC(N)=O)NC1=O)C(=O)N[C@@H](CCCCN)C(=O)N[C@@H](CCC(N)=O)C(=O)N[C@@H](CC(=O)O)C(=O)N[C@@H](CO)C(=O)N[C@@H](CC(=O)O)C(=O)N3)NC(=O)[C@H](C(C)C)NC2=O | Low-density lipoprotein receptor-related protein 6, E1 domain (LRP6, Homo sapiens, UniProt O75581) | binding, SPR | – | pH 7.5 | – | kon | 2.72e+06 ± 630000 M⁻¹ s⁻¹ |
| Cc1cccc(N2CC(C(=O)O)CC2=O)c1 (stereo not shown) | DNA mismatch repair protein Msh6 (Homo sapiens, UniProt P52701) | binding, affinity selection mass spectrometry | – | – | relative to: other proteins in batch | fold enrichment | 0.897 |
| CCC1(O)CCCN(C(=O)c2ccc(-c3ccc(F)c(NC(=O)CCl)c3)cc2)C1 (stereo not shown) | DNA dC->dU-editing enzyme APOBEC-3B, C-terminal domain (Homo sapiens, UniProt Q9UH17) | covalent modifier, intact protein mass spectrometry, refers to: adduct +25721 Da | – | 500 µM, 1 h, 20-fold molar excess | – | protein adduct | 80% |
| O=C(O)c1ccc(Nc2ncc3c(n2)-c2ccc(Cl)cc2C(c2c(F)cccc2F)=NC3)cc1 | FGFR2(h) | kinase activity | – | 1 µM | – | remaining activity | 52% |
| C=CC(=O)N1CCC(COCC(=O)N2CCN(c3nc(-c4cnc(N)nc4C(F)F)nc(N4CCOC[C@@H]4C)n3)CC2)CC1 | Ribosomal protein S6 kinase alpha-6, N-terminal kinase domain (RPS6KA6, Homo sapiens, UniProt Q9UK32) | KINOMEscan | – | 1 µM | relative to: DMSO control | remaining binding | 84% |
| Nc1ncnc2c1ncn2[C@@H]1O[C@H](COP(=O)(O)CP(=O)(O)OP(=O)(O)O)[C@@H](O)[C@H]1O | P2X purinoceptor 1 (P2RX1, Homo sapiens, UniProt P51575, S286A) | calcium influx | – | 31.6 nM | relative to: ionomycin response | calcium influx | 4.52% and 5.19% and 5.5% and 2.54% |
| NC/C(=C\F)COc1cccc(Cn2c(=S)[nH]c(=O)c3[nH]cnc32)c1 | AOC3 (Homo sapiens, UniProt Q16853) | H2O2 production, Amplex Red | – | 0.3333 µM, recombinant human enzyme | – | inhibition | 101% and 99.2% |

| Structure (SMILES) | target | test | test system | setting | how to read | endpoint | result |
| --- | --- | --- | --- | --- | --- | --- | --- |
| O=C(COP(=O)(O)O)[C@@H](O)[C@H](O)[C@H](O)COP(=O)(O)O | Prostaglandin E synthase 3 (Homo sapiens, UniProt Q15185) | thermal proteome profiling, refers to: PTGES3 | HepG2 cell lysate | concentration not given, 57 over 37 °C, mean | relative to: compound over control | thermal stability ratio | 0.573 |
| NC(N)=NCCC[C@H](N)C(=O)Nc1ccc2ccccc2c1 | Puromycin-sensitive aminopeptidase (Rattus norvegicus, UniProt F1M9V7) | substrate | – | MW 100 kDa | – | kcat | 27.2 s⁻¹ |
| Nc1nc2c(ncn2[C@@H]2O[C@H](COP(=O)(O)O)[C@@H](O)[C@H]2O)c(=O)[nH]1 | GUK1 | enzyme activity, NADH-coupled | – | 1000 µM, with: NaCl 50 mM | – | reaction velocity | 0.101 µM/s and 0.0964 µM/s and 0.11 µM/s |
| O=[N+]([O-])c1cc(C(F)(F)F)ccc1NCc1ccsc1 | Endothelial PAS domain-containing protein 1, PAS-B domain (EPAS1, Homo sapiens, UniProt Q99814, N288A) | binding, ITC, reverse mode | – | – | – | ΔG | -8.54 ± 0.45 kcal/mol |
| CC12CCC(CC1)C(C)(C)O2 | uncharacterized protein | binding, competitor, fluorescence displacement | – | 20 µM, pH 7.4, with: 1-NPN 20 µM | relative to: 1-NPN alone | relative fluorescence | 70% |
| O=C(Nc1ccc(-c2ccccc2)cc1)c1cnn(-c2ccc([N+](=O)[O-])cc2)c1C(F)(F)F | PTGS2 (Homo sapiens, UniProt P35354) | enzyme activity, inhibitor | – | – | relative to: COX-1 IC50 over COX-2 IC50 | selectivity ratio | 0.98 |
| O=c1nc(SCc2cc(F)cc(C(F)(F)F)c2)nc(SCc2csc3ccc(Cl)cc23)[nH]1 | TOP2A (Homo sapiens, UniProt P11388) | DNA cleavage | – | 7.8 µM, replicate 1 | – | linear DNA | 0% |
| COc1cc(/C=C/c2ccc(O)cc2)cc(OC)c1 | O-methyltransferase (Sorghum bicolor, UniProt A0A1B6PFV1) | ITC | – | concentration not given, one set of sites, with: SFG | – | binding stoichiometry | 0.45 |
| C1CCCC1.C1CCCC1.[Cl][W][Cl] | ALB | fluorescence quenching | – | 317 K | – | Stern-Volmer quenching constant | 5100 L/mol |
| OC[C@H]1O[C@@H](Oc2cc3c(O)cc(O)cc3[o+]c2-c2ccc(O)cc2)[C@H](O)[C@@H](O)[C@@H]1O | ALB | van't Hoff analysis | – | concentration not given | – | binding entropy change | 0.01 kJ/(mol·K) |
| CNC(=O)[C@@]12C[C@@H]1[C@@H](n1cnc3c(NCc4cccc(Cl)c4)nc(C#Cc4ccc(F)c(F)c4)nc31)[C@H](O)[C@@H]2O | ADORA3 (Homo sapiens, UniProt P0DMS8) | cAMP formation, agonist | HEK293 overexpressing receptor | – | – | Emax | 100% |
| COc1cccc(C(=O)Nc2nc3ccccc3[nH]2)c1 | ADORA2A (Homo sapiens, UniProt P29274) | binding, radioligand competition | – | 10 µM, with: [3H]ZM241385 | – | displacement | 10 ± 4% |
| CC(=O)/C=C/C1=C(C)CCCC1(C)C | uncharacterized protein | binding, competitor, fluorescence displacement | – | 20 µM, pH 7.4, with: 1-NPN 20 µM | relative to: 1-NPN alone | relative fluorescence | 64.3% |
| OC[C@H]1O[C@@H](Oc2cc3c(O)cc(O)cc3[o+]c2-c2ccc(O)c(O)c2)[C@H](O)[C@@H](O)[C@@H]1O | ALB | binding, fluorescence quenching | – | 40 °C | – | Gibbs free energy | -6.47 kcal/mol |
| CC(C)(COP(=O)(O)OP(=O)(O)OC[C@H]1O[C@@H](n2cnc3c(N)ncnc32)[C@H](O)[C@@H]1OP(=O)(O)O)[C@@H](O)C(=O)NCCC(=O)NCCS | ACLY (Homo sapiens, UniProt P53396) | thermal shift | – | 400 µM, ACLY 1 µM | – | melting temperature | 46.1 °C |

For quick reference, copied from above:
| Structure (SMILES) | target | test | test system | setting | how to read | endpoint | result |
| --- | --- | --- | --- | --- | --- | --- | --- |
| CCCCCCCO | uncharacterized protein | binding, competitor, fluorescence displacement | – | 20 µM, pH 7.4, with: 1-NPN 20 µM | relative to: 1-NPN alone | relative fluorescence | 61.8% |
| CC[C@H](C)[C@@H]1NC(=O)[C@H](Cc2ccc(-c3ccccc3)cc2)NC(=O)[C@H](CC(C)C)NC(=O)[C@@H]2CCCN2C(=O)[C@@H](NC(=O)[C@H](CCCNC(=N)N)NC(=O)[C@H](CCCNC(=N)N)NC(C)=O)CSSC[C@@H](C(=O)N[C@@H](CCCNC(=N)N)C(=O)N[C@@H](CCCNC(=N)N)C(N)=O)NC(=O)[C@H](C(C)C)NC(=O)[C@@H]2CCCN2C(=O)[C@H](CC(=O)O)NC(=O)[C@H](Cc2ccc(O)cc2)NC(=O)[C@H](CO)NC1=O | GTPase KRas, GDP-bound (KRAS, Homo sapiens, UniProt P01116, G12D) | affinity selection mass spectrometry | – | mixture library 1, with: protein titration up to 5 µM | lower is stronger binding | lowest bound protein concentration | 0.08 µM |
| CC[C@H](C)[C@@H]1NC(=O)[C@H](CO)NC(=O)[C@@H]2CCCN2C(=O)[C@@H](NC(=O)CN)CSSC[C@@H]2NC(=O)CNC(=O)[C@H](C)NC(=O)[C@H](CC(C)C)NC(=O)[C@@H]3CSSC[C@@H](C(=O)NCC(=O)O)NC(=O)[C@H](Cc4ccccc4)NC(=O)CNC(=O)[C@H](CC(N)=O)NC(=O)[C@@H]4CCCN4C(=O)CNC(=O)[C@H](CSSC[C@H](NC(=O)[C@H](CCCNC(=N)N)NC(=O)[C@H](Cc4c[nH]cn4)NC(=O)[C@H](CCCNC(=N)N)NC(=O)[C@H](CCCCN)NC(=O)[C@H](C(C)C)NC(=O)[C@H](CCCNC(=N)N)NC(=O)[C@H](CC(N)=O)NC1=O)C(=O)N[C@@H](CCCCN)C(=O)N[C@@H](CCC(N)=O)C(=O)N[C@@H](CC(=O)O)C(=O)N[C@@H](CO)C(=O)N[C@@H](CC(=O)O)C(=O)N3)NC(=O)[C@H](C(C)C)NC2=O | Low-density lipoprotein receptor-related protein 6, E1 domain (LRP6, Homo sapiens, UniProt O75581) | binding, SPR | – | pH 7.5 | – | kon | 2.72e+06 ± 630000 M⁻¹ s⁻¹ |
